Assay results pooled from the literature.
A part holds a random share of what one study measured. Substitutions count along the parent as printed.

Set 1
Target: CCNA1, cyclin fold, Cln2 fusion (human)
Technique: yeast growth competition, sequencing
Medium: yeast
Notes: weak parent motif
Reference: not given
Direction: higher = stronger binding
Starting sequence: CDKN1B docking peptide (human); PSACRNLFGPVDH; partner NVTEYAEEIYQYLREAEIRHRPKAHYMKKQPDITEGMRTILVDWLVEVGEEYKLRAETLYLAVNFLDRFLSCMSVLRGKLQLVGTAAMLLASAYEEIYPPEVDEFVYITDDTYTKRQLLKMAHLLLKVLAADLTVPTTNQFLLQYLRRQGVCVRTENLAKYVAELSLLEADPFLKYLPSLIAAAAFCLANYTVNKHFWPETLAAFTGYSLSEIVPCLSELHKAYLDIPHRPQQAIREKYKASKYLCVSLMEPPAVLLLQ
Variant	normalised enrichment score
F8Y	-0.0534
N6V	0.36
A3D	0.115
L7M	0.38
D12G	0.205
P10T	0.389
R5A	-0.0093
A3F	0.484
R5M	0.15
P1C	0.132
A3C	0.402
P1H	0.321
N6S	0.381

Set 2
Target: RNA binding protein fox-1 homolog 2, RRM domain, GST-SBP tag (RBFOX2, Homo sapiens, UniProt O43251-10, residues 100-194)
Technique: RNA Bind-n-Seq
Form: RNA
Medium: in vitro
Tested at: 365 nM
Notes: natural RNA segment, single round, ends assumed
Reference: no-protein control
Direction: higher = stronger binding
All sequences stand within: GGGAGUUCUACAGUCCGACGAUC … UGGAAUUCUCGGGUGCCAA
Target sequence (chain): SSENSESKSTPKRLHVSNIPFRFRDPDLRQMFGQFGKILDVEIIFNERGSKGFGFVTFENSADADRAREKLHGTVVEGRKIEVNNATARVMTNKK
Strand	RBNS enrichment (R)
CCUUUCUAGUUGCCAUGGAAAAGCUGUUGUUUGAAUACUUGUGUCAGCUAGAGAAAGCACUGCCUCCAGUCAGAGCACAAGAGGUUGUUGAGAAAGAAACACUUUAAGGG	0.558
ACAAUGUGUGCACAUAGGGAAUGUCCUUUAAGAAUCAUGGAUCUCUUGUAGGCUCUCUGUGUUCCAAUAAUUUUUUGACUAUCAUACCAGGAAAAAACCAACAACUCUAU	0.787
GACAAUGGCCACAAGUUUGGCGUCCUUCAAUUUAAUUCUUUAAAGAAGUGCUGGGAAGAAAAAGCUAUGUGGUUUCUACCAUUUUAGCAGGAUAAAGAGGAUAACUCCUU	0.436
UUAUCUCAGGGCUCUGCCUGGCCCACCUUCUCUUGGGCCUGGACUCUCCUUAUCCACAUCCCUGCAGAAGGUGGGCCCUAUUCUCAGAAGAGUCCUGGCUGCUGUUGCCA	0.313
UGCCUUCCCUAGUAGUAGGGACUGACAGAAUACACUUAACACAAACCUCAAGCUUUACUGACUUCAAUUAUCUGUUUUUAAAGACGUAGAAGAUUUAUUUAAUUUGAUAU	0.323
UUCAGCAUCACUCUACCCUCCCAUGUCCUUAGCAUUGCUGUGCGUGUUUCCAGGCACUUAGGACACCCUUCCCCACGUUGCCAUCUUACUGACAGUUCAAAUGACUCUCC	0.955
GAAAGAGGGCAUUCAUGCAUAGAAUUCUGAGGCCUGGCACAACUCCCUGCCCAGGAGCACAGCUUGCUGCUGAGGGCUGGGUGUGACCGUGUCUGCCUCUGGCUGCUGGG	3.78
GUCUGCCUCUCAUGUGUGACCCCAAGGCAGCCAGGCUGUCACUGCUGCUGUCACAGGCUGACACCUUACAGAUGUCCUGACCAUGGGUGACCCUCCUCGGAGCGUCCAGA	0.202

Set 3
Target: Cyclic AMP-dependent transcription factor ATF-1 (ATF1, Homo sapiens, UniProt P18846, residues 1-271, full length assumed)
Technique: protein-binding microarray
Form: double-stranded DNA, one strand shown
Medium: in vitro
Tested at: not given
Notes: k-mer, scored over probes, only values ≥0.25
Direction: higher = stronger binding
Target sequence (chain): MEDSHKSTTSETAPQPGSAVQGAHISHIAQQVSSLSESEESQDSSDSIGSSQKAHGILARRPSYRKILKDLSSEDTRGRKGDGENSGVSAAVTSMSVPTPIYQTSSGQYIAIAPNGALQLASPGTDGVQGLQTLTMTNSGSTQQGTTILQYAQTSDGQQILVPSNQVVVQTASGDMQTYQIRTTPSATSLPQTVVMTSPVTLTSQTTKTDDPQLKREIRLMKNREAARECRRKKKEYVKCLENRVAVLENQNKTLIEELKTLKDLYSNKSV
Strand	E-score
CACATAC	0.276
ACGTGGC	0.278
AACGTGA	0.291
ATGTCAC	0.327
GATGTCA	0.295
ACGTCAC	0.498
GGGTGAC	0.349
ACGCAAC	0.349
GACGTAA	0.455
TCCACGA	0.254
TACGCAA	0.34
ACGCGGA	0.269
GTCACAA	0.348
CCCACCC	0.271
ACACACG	0.261
ACCACGT	0.336

Set 4
Target: Histone acetyltransferase KAT6A, winged helix 2, GST fusion (KAT6A, Homo sapiens, UniProt Q92794, residues 85-181)
Technique: protein binding microarray
Form: double-stranded DNA, one strand shown
Medium: in vitro
Tested at: not given
Notes: 8-mer, flanks averaged, mean of 2 arrays, mostly near background
Reference: not given
Direction: higher = stronger binding
Construct (chain): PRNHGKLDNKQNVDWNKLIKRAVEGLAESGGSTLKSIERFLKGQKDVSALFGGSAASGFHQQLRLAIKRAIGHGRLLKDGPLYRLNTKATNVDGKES
Strand	E-score
CGAAGTCC	-0.0627
TCAATCCA	0.00887
TGTGTCAA	-0.0809
AGGCGACT	-0.0195
CACGGTGC	0.0908
AGCTTGGC	0.0683
TCCAGGCA	0.0368
ATGCTCTA	0.0114
GGTGGCGA	0.00777
ACGAACTC	0.0997
CGCTCATC	0.089
ACGTTAGT	-0.131
ACTTTTTC	-0.0919
CCCGACCG	0.168
CCGGAGCA	0.19
AGTCCGGC	0.0974
AACAGCAA	-0.0125
CATTACAA	0.0353
ACTACCCC	-0.294
AAACTCAT	0.147
AGTTGTGA	-0.0619

For quick reference, copied from above (set 3):
Strand	E-score
ATGTCAC	0.327
CCCACCC	0.271
ACGTGGC	0.278
ACGTCAC	0.498
ACCACGT	0.336
